Experimental data of several laboratories.
Compare with care: the assays were run in different laboratories. Several values in a cell are separate wells, animals, samples, runs or records. ± gives the spread as reported.
UniProt O88693, sequence (whole entry, looked up): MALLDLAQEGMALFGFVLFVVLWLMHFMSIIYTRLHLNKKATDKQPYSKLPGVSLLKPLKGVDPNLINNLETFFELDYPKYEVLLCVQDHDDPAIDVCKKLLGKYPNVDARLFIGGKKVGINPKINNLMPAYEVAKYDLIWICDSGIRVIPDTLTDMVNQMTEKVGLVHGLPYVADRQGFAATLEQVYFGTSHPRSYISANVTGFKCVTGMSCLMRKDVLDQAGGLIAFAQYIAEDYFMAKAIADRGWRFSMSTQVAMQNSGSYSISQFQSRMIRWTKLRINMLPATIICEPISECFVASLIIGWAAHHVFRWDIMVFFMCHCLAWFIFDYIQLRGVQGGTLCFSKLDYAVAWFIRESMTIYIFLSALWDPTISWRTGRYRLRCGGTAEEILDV
UniProt P04629, sequence (whole entry, looked up): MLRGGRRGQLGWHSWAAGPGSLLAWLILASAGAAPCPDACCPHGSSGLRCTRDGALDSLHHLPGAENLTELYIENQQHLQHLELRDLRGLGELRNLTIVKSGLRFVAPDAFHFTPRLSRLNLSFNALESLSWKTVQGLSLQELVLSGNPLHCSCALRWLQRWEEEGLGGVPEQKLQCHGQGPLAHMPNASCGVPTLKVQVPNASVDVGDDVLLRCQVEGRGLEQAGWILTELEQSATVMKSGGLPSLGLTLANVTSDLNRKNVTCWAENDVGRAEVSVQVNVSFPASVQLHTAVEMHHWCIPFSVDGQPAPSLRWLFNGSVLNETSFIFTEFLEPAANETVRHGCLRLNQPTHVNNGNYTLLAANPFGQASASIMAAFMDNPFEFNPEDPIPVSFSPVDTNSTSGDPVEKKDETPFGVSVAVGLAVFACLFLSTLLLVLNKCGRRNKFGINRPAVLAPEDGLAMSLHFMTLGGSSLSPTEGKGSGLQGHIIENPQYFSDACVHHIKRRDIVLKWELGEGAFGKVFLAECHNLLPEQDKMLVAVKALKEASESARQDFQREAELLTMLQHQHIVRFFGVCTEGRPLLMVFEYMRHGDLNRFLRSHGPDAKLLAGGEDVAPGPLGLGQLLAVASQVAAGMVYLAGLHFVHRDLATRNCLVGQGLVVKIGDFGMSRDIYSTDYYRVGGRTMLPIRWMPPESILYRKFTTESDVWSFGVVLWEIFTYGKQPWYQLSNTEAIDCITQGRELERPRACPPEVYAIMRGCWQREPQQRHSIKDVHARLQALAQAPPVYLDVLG

Structure (SMILES)	tested on	test	system	setting	how to read	quantity	value
CCCCCCCCOCCCCCN1C[C@H](O)[C@@H](O)[C@H](O)[C@H]1CO	Ugcg (Mus musculus, UniProt O88693)	enzyme activity, inhibitor, fluorescence	–	–	–	IC50	200 nM
CN(C)c1ccc(/C=C/c2cc(=O)cc(/C=C/c3ccc(N(C)C)cc3)o2)cc1	–	–	acetonitrile	298 K, together with: excitation 377 nm	–	fluorescence lifetime	0.21 ns
C=CC(=O)Nc1cc(Nc2nccc(-c3cn(C)c4ccccc34)n2)c(OC)cc1N(C)CCNC	–	storage stability	human dried blood spot	30 d, -80 °C, MQC level	–	recovery	98.8%
O=C(Nc1cnccc1-c1ccc([18F])cc1)c1ccnc(NC(=O)C2CC2)c1	–	–	FVB/NJ mouse, both sexes, brain	intravenous, 40 min	–	SUV	0.18
O=C(Nc1ccc([C@H]2[C@@H](F)[C@@H](F)C[C@@H](F)[C@H]2F)cc1)C1(N2CCOCC2)CC1	–	liver microsome stability	cynomolgus liver microsomes	1 µM	–	hepatic clearance	36 mL/min/kg
C=C1CC[C@H](OCCCNC(=O)CCOCCOCCOCCOCCOCCOCCOCCOCCOCCOCCOCCOCCOCCOCCOCCOCCOCCOCCOCCOCCOCCOCCOCCOCCOCCOCCOCCOCCOCCOCCOCCOCCOCCOCCOCCOCCNC(=O)CCN2C(=O)CC(SC[C@H](NC(=O)[C@H](Cc3ccccc3)NC(=O)[C@H](CC(N)=O)NC(=O)[C@H](Cc3c[nH]cn3)NC(=O)[C@@H](NC(=O)[C@H](CC(=O)O)NC(=O)[C@H](CCC(N)=O)NC(=O)[C@H](CC(C)C)NC(=O)[C@H](CCCCN)NC(=O)[C@H](CCCCN)NC(=O)[C@H](CCCNC(=N)N)NC(=O)[C@H](CC(C)C)NC(=O)[C@H](Cc3c[nH]c4ccccc34)NC(=O)[C@H](CCC(=O)O)NC(=O)[C@@H](NC(=O)[C@H](CCCNC(=N)N)NC(=O)[C@H](CCC(=O)O)NC(=O)[C@H](CCSC)NC(=O)[C@H](CO)NC(=O)[C@H](CC(N)=O)NC(=O)[C@H](CC(C)C)NC(=O)[C@H](Cc3c[nH]cn3)NC(=O)[C@H](CCCCN)NC(=O)CNC(=O)[C@H](CC(C)C)NC(=O)[C@H](CC(N)=O)NC(=O)[C@H](Cc3c[nH]cn3)NC(=O)[C@H](CCSC)NC(=O)[C@H](CC(C)C)NC(=O)[C@H](CCC(N)=O)NC(=O)[C@@H](NC(=O)[C@H](CCC(=O)O)NC(=O)[C@H](CO)NC(=O)[C@@H](NC(=O)[C@@H](N)CO)C(C)C)[C@@H](C)CC)C(C)C)C(C)C)C(=O)O)C2=O)C/C1=C/C=C1\CCC[C@]2(C)[C@@H]([C@H](C)CCCC(C)(C)O)CC[C@@H]12 (stereo partly shown)	–	–	rat, plasma	subcutaneous, 30 µg/kg, single dose	–	MRT	15.9 h
Nc1ncc(-c2cc(-c3cnn(CC(F)(F)F)c3)ncc2F)nc1C(=O)NC1CNCC(F)C1 (stereo not shown)	MST1	KINOMEscan	–	1 µM	relative to: DMSO control	remaining binding	53%
C=CC(=O)Nc1cccc(Cn2ncc3cnc(Nc4cnn(CCOC)c4)nc32)c1	CDK3 human	binding, KINOMEscan	–	100 nM	lower = stronger binding	percent of control	88%
C=C(NC(=O)c1csc(-c2nc3c(cc2O)-c2nc(cs2)C(=O)NC(C(C)O)C(=O)NC(=C(C)OC)c2nc(cs2)C(=O)NC2c4nc(cs4)C(=O)NC(COC(=O)c4c5c6c(cccc6n4O)COC(=O)C(OC4CC(C)(O)C(N(C)C)C(C)O4)C2OC5)c2nc-3cs2)n1)C(N)=O (stereo not shown)	–	–	cynomolgus monkey, male, plasma	intravenous infusion, 3 mg/kg multiple doses, day 7	–	Cmax	12300 ng/mL
O=C(NCCOc1ccc(F)cc1)c1ccc([C@H]2[C@@H](F)[C@@H](F)C[C@@H](F)[C@H]2F)cc1	–	liver microsome stability	human liver microsomes	1 µM, without NADPH	–	hepatic clearance	3.9 mL/min/kg
CCC(=O)N(C)c1ccc(Cl)c(Cl)c1	–	–	mouse C57BL/6, female, plasma	intravenous, 2 mg/kg, 2 h	–	plasma concentration	23.4 ng/mL
CN1CCC(c2ccc(-c3ccc([C@H]4[C@@H](F)[C@@H](F)C[C@@H](F)[C@H]4F)cc3)cn2)CC1	–	liver microsome stability	rat liver microsomes	1 µM	–	hepatic clearance	45 mL/min/kg
CC(C)C[C@H](NC(=O)[C@H](Cc1ccc(O)cc1)NC(=O)[C@@H](CCCNC(=N)N)NC(=O)[C@@H](CO)NC(=O)[C@H](Cc1ccccc1)NC(=O)[C@H](CC1CCCCC1)NC(=O)[C@H](CC(=O)O)NC(=O)CN1CCN(CC(=O)O)CCN(CC(=O)O)CCN(CC(=O)O)CC1)C(=O)N[C@@H](Cc1c[nH]c2ccccc12)C(=O)N[C@@H](CO)C(=O)O [copper-64 labelled]	–	–	human, red marrow	concentration not given, 1 h	–	activity concentration	1520 Bq/mL and 1660 Bq/mL and 1160 Bq/mL and 926 Bq/mL and 2050 Bq/mL
C/C(N)=N/C(=N\S(=O)(=O)c1ccc(C(F)(F)F)cc1)N1C[C@H](c2ccccc2)C(c2ccc(Cl)cc2)=N1	–	–	male Sprague-Dawley rat, plasma	intravenous, 2 mg/kg	–	half-life	3.9 h
CCn1cc(-c2cc(Cn3ccnc3)cc3c2CCN([C@H](c2cc(OC)ccn2)C2CC2)C3=O)c(C(F)(F)F)n1	–	–	CD-1 mouse, male, plasma	oral, 50 mg/kg	–	AUC extrapolated	1.2%
c1cc(C2CCCCC2)ccc1-c1cnc(N2CCOCC2)nc1	–	liver microsome stability	dog liver microsomes	1 µM	–	hepatic clearance	26 mL/min/kg
COC1CN([C@H]2CC[C@H]([C@@]3(C)Oc4c(Cl)cc(C(=O)NCc5c(SC)cc(C)[nH]c5=O)c(C)c4O3)CC2)C1	–	RNA-seq, item: LZTFL1	human, whole blood	dose not given, 24 h	relative to: pretreatment baseline	log2 fold change	1.26
CC(C)C[C@H](NC(=O)[C@@H](CCCCNC(=O)[C@@H](Cc1ccccc1)NC(=O)CCCCCNC(=O)CN1CCN(CC(=O)O)CCN(CC(=O)O)CCN(CC(=O)O)CC1)NC(=O)[C@H](Cc1ccc(O)cc1)NC(=O)[C@H](CO)NC(=O)[C@H](Cc1c[nH]c2ccccc12)NC(=O)[C@H](Cc1c[nH]cn1)NC(=O)[C@@H]1CCC(=O)N1)C(=O)N[C@@H](CCCNC(=N)N)C(=O)N1CCC[C@H]1C(=O)NCC(N)=O [indium-111 labelled]	–	–	female athymic nude mice, kidneys	intravenous, 0.037 MBq, 0.5 h	–	tissue uptake	8.14 ± 1.1 %ID/g
CCCCCCCOc1ccc(CC[C@](N)(CO)COP(=O)(O)O)cc1C(F)(F)F	–	–	healthy men, plasma	oral, 0.25 mg once daily, day 21, fed state	–	AUCτ	80.2 ng·h/mL
Cc1nn(-c2cccc(N)c2)c(=O)c2cnc(Nc3ccc(N4CCNCC4)cc3)nc12	NTRK1 (Homo sapiens, UniProt P04629)	enzyme activity, inhibitor	–	–	–	IC50	2750 nM
COc1cccc(OC)c1-c1cc(C(=O)NC2(C(=O)O)C3CC4CC(C3)CC2C4)nn1-c1ccc(C(=O)N(C)CCCN(C)C(=O)[C@H](CCCCNC(=O)[C@H](CC(C)C)NC(=O)C2OC2C(=O)O)NC(=O)CN2CCN(CC(=O)[O-])CCN(CC(=O)[O-])CCN(CC(=O)[O-])CC2)cc1C(C)C.[177Lu+3] (mixture of isomers)	–	–	mouse, HT-29 xenograft	4 h post injection, biodistribution	relative to: tumour over blood uptake	tumour-to-blood ratio	5
COC(=O)[C@@]1(C)C=C(C(=O)Nc2cccc(C(=O)Nc3ccc(Nc4nccc(-c5cccnc5)n4)c(C)c3)c2)C(=O)CC1	–	metabolic stability	Wistar rat, male, primary hepatocytes	1 µM, 10 min	–	compound remaining	75.6%
COc1ccc2c(c1)O[B-]1(c3ccccc3)OC(=O)C(c3ccccc3)=N[N+]1=C2C (stereo not shown)	–	–	toluene	–	–	fluorescence emission maximum	501 nm
Cc1ccc(-c2ccc([C@H]3[C@@H](F)[C@@H](F)C[C@@H](F)[C@H]3F)cc2)cn1	–	liver microsome stability	dog liver microsomes	1 µM	–	hepatic clearance	28 mL/min/kg
C=C[C@]1(C)C[C@@H](OC(=O)CSc2ccc(NC(=O)c3ccco3)cc2)[C@]2(C)[C@H](C)CC[C@]3(CCC(=O)[C@H]32)[C@@H](C)[C@@H]1O	–	–	M. gallisepticum-infected chickens, plasma	intramuscular, 40 mg/kg single dose	–	elimination half-life	3.61 h

Excerpt of the above:
Structure (SMILES)	tested on	test	system	setting	how to read	quantity	value
CN1CCC(c2ccc(-c3ccc([C@H]4[C@@H](F)[C@@H](F)C[C@@H](F)[C@H]4F)cc3)cn2)CC1	–	liver microsome stability	rat liver microsomes	1 µM	–	hepatic clearance	45 mL/min/kg
CC(C)C[C@H](NC(=O)[C@H](Cc1ccc(O)cc1)NC(=O)[C@@H](CCCNC(=N)N)NC(=O)[C@@H](CO)NC(=O)[C@H](Cc1ccccc1)NC(=O)[C@H](CC1CCCCC1)NC(=O)[C@H](CC(=O)O)NC(=O)CN1CCN(CC(=O)O)CCN(CC(=O)O)CCN(CC(=O)O)CC1)C(=O)N[C@@H](Cc1c[nH]c2ccccc12)C(=O)N[C@@H](CO)C(=O)O [copper-64 labelled]	–	–	human, red marrow	concentration not given, 1 h	–	activity concentration	1520 Bq/mL and 1660 Bq/mL and 1160 Bq/mL and 926 Bq/mL and 2050 Bq/mL
